# Published values from different studies.
# Protocols differ between the studies behind these lines. “And” joins repeats or separate records; there may be more than shown. ± gives the spread as reported.
# Urease: Urease (Canavalia ensiformis, UniProt P07374)
# Chain of UniProt P07374 (whole entry, looked up): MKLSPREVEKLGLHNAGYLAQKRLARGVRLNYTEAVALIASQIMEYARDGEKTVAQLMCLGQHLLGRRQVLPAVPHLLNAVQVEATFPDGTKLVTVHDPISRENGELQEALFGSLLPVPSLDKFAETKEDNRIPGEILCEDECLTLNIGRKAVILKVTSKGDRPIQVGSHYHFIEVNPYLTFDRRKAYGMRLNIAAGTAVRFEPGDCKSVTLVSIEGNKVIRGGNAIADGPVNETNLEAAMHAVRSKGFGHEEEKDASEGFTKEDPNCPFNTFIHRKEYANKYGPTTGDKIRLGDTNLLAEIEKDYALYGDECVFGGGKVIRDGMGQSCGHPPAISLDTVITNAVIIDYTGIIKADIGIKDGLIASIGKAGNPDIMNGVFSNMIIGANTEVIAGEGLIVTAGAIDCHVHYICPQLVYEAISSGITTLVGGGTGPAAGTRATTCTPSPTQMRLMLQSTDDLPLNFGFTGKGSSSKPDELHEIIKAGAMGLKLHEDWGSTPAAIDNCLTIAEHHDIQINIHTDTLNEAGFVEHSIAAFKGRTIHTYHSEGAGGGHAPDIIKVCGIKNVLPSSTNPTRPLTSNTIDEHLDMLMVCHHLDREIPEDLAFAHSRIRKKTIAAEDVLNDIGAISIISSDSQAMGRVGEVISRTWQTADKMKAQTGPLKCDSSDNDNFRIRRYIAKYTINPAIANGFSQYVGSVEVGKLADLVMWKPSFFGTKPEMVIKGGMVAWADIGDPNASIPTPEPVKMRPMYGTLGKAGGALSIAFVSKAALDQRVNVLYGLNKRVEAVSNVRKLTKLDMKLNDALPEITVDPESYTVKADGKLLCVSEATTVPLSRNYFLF
# Cyp2b1: Cytochrome P450 2B1 (Cyp2b1, Rattus norvegicus, UniProt P00176)
# Chain of UniProt P00176 (whole entry, looked up): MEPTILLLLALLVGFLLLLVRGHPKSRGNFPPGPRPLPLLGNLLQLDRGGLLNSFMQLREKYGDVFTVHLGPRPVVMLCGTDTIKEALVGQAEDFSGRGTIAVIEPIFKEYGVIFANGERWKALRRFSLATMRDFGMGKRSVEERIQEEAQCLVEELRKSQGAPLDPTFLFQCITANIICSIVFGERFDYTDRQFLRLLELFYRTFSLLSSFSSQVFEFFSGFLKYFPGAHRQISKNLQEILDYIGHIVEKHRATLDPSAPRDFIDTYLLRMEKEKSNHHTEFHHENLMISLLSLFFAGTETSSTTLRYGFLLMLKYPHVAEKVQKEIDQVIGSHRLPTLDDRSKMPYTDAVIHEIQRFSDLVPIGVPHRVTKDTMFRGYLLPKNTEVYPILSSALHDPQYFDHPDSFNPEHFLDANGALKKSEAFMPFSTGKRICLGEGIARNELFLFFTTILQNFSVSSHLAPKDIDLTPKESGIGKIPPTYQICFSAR
# Trpv1: Transient receptor potential cation channel subfamily V member 1 (Trpv1, Rattus norvegicus, UniProt O35433)
# Chain of UniProt O35433 (whole entry, looked up): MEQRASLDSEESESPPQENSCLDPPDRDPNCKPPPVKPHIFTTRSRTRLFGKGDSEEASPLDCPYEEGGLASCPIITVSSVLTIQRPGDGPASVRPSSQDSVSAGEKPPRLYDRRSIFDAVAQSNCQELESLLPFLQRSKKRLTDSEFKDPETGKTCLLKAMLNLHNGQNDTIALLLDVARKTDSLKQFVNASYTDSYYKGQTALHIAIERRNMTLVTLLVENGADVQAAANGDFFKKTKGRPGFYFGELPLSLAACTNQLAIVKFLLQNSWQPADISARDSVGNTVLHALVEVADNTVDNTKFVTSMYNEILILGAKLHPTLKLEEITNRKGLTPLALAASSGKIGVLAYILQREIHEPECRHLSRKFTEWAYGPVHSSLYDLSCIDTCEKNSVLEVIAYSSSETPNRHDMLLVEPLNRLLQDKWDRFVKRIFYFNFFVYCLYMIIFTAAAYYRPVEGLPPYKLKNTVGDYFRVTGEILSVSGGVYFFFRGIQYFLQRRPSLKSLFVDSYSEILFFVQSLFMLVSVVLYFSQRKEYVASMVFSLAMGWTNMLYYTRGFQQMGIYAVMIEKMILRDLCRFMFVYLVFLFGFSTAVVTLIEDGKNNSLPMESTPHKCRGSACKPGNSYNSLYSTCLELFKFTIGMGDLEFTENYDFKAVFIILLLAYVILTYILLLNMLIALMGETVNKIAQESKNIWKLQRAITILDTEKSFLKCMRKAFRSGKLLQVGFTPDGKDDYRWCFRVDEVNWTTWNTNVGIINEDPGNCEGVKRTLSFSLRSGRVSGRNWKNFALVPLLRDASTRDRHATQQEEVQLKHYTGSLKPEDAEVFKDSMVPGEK
# KCNJ13 M125R: Inward rectifier potassium channel 13 (KCNJ13, Homo sapiens, UniProt O60928, M125R)
# Chain of UniProt O60928 (whole entry, unmodified, looked up): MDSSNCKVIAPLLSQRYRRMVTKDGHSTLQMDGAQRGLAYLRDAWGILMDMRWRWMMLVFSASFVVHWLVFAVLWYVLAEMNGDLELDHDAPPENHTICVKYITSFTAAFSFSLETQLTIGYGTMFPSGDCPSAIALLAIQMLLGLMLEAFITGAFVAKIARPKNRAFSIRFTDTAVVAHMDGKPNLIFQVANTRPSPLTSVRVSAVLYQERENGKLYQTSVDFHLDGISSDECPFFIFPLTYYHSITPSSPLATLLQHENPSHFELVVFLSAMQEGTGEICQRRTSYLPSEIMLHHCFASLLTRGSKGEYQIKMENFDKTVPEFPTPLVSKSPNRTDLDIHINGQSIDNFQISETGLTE
# CAPN1: Calpain-1 catalytic subunit (CAPN1, Homo sapiens, UniProt P07384)
# Chain of UniProt O95259 (whole entry, looked up): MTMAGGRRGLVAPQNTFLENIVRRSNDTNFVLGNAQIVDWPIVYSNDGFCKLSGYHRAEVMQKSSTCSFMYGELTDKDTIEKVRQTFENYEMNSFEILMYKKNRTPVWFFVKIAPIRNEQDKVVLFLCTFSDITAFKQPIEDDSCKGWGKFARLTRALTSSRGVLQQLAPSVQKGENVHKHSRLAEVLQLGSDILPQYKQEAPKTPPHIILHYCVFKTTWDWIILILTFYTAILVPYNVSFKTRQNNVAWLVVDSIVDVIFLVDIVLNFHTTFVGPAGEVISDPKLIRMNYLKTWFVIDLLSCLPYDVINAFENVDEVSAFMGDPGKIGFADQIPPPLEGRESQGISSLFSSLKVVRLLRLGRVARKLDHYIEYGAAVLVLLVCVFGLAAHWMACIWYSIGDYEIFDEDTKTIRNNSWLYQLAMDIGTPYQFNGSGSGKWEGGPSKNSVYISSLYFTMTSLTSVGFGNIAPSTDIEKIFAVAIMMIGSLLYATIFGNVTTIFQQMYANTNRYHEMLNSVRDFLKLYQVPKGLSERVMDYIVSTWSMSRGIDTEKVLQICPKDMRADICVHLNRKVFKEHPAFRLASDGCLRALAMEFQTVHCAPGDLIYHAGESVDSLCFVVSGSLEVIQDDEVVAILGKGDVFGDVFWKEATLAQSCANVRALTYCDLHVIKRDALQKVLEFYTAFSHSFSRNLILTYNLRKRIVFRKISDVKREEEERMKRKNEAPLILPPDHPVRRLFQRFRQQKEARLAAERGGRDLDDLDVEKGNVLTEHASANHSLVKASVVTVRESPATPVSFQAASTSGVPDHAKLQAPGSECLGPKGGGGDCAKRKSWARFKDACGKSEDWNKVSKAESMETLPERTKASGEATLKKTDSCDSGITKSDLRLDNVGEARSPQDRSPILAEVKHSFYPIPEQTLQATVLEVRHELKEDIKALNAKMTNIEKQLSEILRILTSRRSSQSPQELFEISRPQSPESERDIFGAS
# Chain of UniProt P07384 (whole entry, looked up): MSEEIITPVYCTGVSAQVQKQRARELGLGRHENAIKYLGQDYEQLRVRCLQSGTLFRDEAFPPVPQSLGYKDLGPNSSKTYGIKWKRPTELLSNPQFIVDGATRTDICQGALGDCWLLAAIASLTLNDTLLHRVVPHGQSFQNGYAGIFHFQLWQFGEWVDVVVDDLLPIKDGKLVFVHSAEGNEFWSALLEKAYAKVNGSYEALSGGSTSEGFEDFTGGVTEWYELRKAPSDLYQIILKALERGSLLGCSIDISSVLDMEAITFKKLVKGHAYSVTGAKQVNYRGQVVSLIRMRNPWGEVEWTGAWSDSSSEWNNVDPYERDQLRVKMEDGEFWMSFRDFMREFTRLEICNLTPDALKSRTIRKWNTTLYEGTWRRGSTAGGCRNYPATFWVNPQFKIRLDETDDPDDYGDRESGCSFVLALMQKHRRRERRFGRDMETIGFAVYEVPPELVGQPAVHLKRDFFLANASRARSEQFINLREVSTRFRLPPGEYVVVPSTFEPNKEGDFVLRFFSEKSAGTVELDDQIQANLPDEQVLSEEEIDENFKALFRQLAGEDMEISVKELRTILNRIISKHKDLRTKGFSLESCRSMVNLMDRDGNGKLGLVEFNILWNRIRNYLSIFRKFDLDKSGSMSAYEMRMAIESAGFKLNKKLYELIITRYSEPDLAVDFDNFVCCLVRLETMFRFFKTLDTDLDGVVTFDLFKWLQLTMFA
# Chain of UniProt P05979 (whole entry, looked up): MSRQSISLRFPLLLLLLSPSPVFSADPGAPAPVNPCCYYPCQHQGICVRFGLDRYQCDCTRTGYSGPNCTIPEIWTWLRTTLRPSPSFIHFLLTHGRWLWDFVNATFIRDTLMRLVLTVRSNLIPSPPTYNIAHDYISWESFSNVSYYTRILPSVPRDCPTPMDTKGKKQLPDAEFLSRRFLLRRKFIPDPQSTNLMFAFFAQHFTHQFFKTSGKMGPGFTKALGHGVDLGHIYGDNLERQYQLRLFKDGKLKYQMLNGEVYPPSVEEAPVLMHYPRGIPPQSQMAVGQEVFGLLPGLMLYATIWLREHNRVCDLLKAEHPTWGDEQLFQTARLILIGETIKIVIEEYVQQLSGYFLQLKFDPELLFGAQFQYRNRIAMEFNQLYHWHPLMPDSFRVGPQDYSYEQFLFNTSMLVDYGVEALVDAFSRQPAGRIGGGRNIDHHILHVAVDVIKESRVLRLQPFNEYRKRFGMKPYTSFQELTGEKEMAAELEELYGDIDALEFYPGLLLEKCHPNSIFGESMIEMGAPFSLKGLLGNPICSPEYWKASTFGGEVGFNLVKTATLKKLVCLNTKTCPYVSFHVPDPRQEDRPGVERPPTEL
SMILES,target,test,system,conditions,IC50
O=C(OC(C(F)(F)F)C(F)(F)F)N1CCN(C(c2ccc(Cl)cc2)c2ccc(Cl)cc2)CC1,"Monoacylglycerol lipase-like protein (Plasmodium falciparum, UniProt Q8IJ22)","enzyme activity, inhibitor",,added: 4-methylumbelliferyl octanoate 10 µM,0.0026 µM
CC(C)S(=O)(=O)c1ccc2nccc(Nc3ccc4sc(C5CCCC5)nc4c3)c2c1,"RIPK3 (Homo sapiens, UniProt Q9Y572)","enzyme activity, inhibitor, ADP detection",,,0.002 µM
O=[N+]([O-])c1ccc(N2CCN(S(=O)(=O)c3ccc(F)cc3)CC2)cc1F,"Kir1 channel protein (Aedes aegypti, UniProt L0EQS9)","ion flux, inhibitor, fluorescence",,,2.43 µM
N#Cc1ccc(C(Cc2ccc(OS(N)(=O)=O)cc2)n2cncn2)cc1 (racemic),"Steryl-sulfatase (STS, Homo sapiens, UniProt P08842)","enzyme activity, inhibitor",,,3.52 ± 0.625 µM
COc1ccc(CCN2CCC(Nc3nc4ccccc4n3Cc3ccc(F)cc3)CC2)cc1,"KCNH1 (Homo sapiens, UniProt O95259)","potassium current, blocker, whole-cell patch clamp",HEK293 stably transfected,"pH 7.4 extracellular, test pulse 80 mV",0.196 µM and 0.21 µM and ~0.2 µM
COc1cc(/C=N/NC(=O)COc2cc(C)cc3oc(=O)cc(C)c23)ccc1OCc1cn(Cc2ccc(F)cc2)nn1,Urease,"enzyme activity, inhibitor",,,10.3 ± 1.09 µM
Nc1nc(-c2cccc3ccccc23)c(Cl)s1,"Scn2a (Mus musculus, UniProt B1AWN6)","sodium current, inhibitor",N1E-115,0.1 Hz stimulation,~118 µM and 118 µM
CC12CC3CC(C)(C1)CC(N)(C3)C2,"Glutamate receptor 2, with TARP gamma-2 (Gria2, Rattus norvegicus, UniProt P19491, Q607E)","ion current, inhibitor, whole-cell patch clamp",,"Q607E with gamma-2, -100 mV, added: glutamate 10 mM",5.7 ± 1 µM
CCn1c(=O)/c(=C2\Sc3cc(Cl)ccc3N2C)s/c1=C\c1scc[n+]1Cc1ccccc1,"Heat shock 70 kDa protein 1A, with Bag1 (HSPA1A, Homo sapiens, UniProt P0DMV8)","protein-protein interaction, inhibitor, flow cytometry protein interaction",,added: labeled Bag1 50 nM,0.6 ± 0.1 µM
N#CC1=C(N)Oc2c(c(=O)[nH]c3ccccc23)C1c1cccc(OCc2cn(Cc3ccccc3)nn2)c1 (stereo not drawn),"MAL12 (Saccharomyces cerevisiae S288c, UniProt P53341)",enzyme activity,,,1.19 ± 0.05 µM
Cc1ccccc1NC(=S)N1CCc2ccccc2C1,Urease,"enzyme activity, inhibitor, absorbance",,,20.4 µM
COCC(=O)O[C@]1(CCN(C)CCCc2nc3ccccc3[nH]2)CCc2cc(F)ccc2[C@@H]1C(C)C,"KCNK18 (Homo sapiens, UniProt Q7Z418)","ion flux, inhibitor",,,2.48 µM
O=c1cc(-c2cccc(O)c2)oc2ccccc12,Cyp2b1,"enzyme activity, inhibitor",supersomes,added: pentoxyresorufin 5 µM,> 50 µM
[Cu+2],Trpv1,"transporter uptake, inhibitor, radiometric",,,200 µM
N#Cc1ccc(OCC(O)Cn2c(=N)n(Cc3ccccc3)c3ccccc32)cc1 (stereo not drawn),"Inward rectifier potassium channel 4 (Homo sapiens, UniProt P48050)","ion flux, inhibitor, fluorescence",,,11.3 µM
O=C(NNC(=O)c1ccc(CNS(=O)(=O)c2ccc(F)c(Cl)c2)cc1)c1ccccc1,"Glutamate NMDA receptor; Grin1/Grin2a (Grin1/Grin2a, Rattus norvegicus, UniProt P35439+Q00959, V783F)","ion current, two-electrode voltage clamp",,oocytes,1.9 µM
CCc1oc2ccccc2c1C(=O)c1cc(C(C)(C)C)c(O)c(C(C)(C)C)c1,"SLC22A12 (Homo sapiens, UniProt Q96S37)","transporter uptake, inhibitor, radiometric",,oocytes,0.25 µM
CCCCN(Cc1ccc(C(=O)NO)cc1)C(=O)Nc1ccccc1,HDAC (Lucilia cuprina egg nuclear extract),"enzyme activity, inhibitor, fluorometric",,,5.1 µM
CC(C)CCn1c(CN2CCN(C(=O)c3ccco3)CC2)nc2c1c(=O)n(C)c(=O)n2C,"ALDH1A3 (Homo sapiens, UniProt P47895)","enzyme activity, inhibitor",,added: propionaldehyde,> 100 µM
N=c1n(Cc2ccc(Cl)cc2)c2ccccc2n1CC(O)COc1ccccc1 (stereo not drawn),KCNJ13 M125R,"ion flux, inhibitor",,,8.93 µM
O=C(Nc1nc(-c2ccc(F)cc2)cs1)[C@H](Cc1c[nH]cn1)NC(=O)[C@@H]1O[C@H]1C(=O)O,CAPN1,"inhibitor, FRET",,20 min,> 1 µM
C[C@@H]1O[C@@H](O[C@@H]2[C@@H](O)[C@H](OCCc3ccc(O)c(O)c3)O[C@H](CO)[C@H]2OC(=O)/C=C/c2ccc(O)c(O)c2)[C@H](O)[C@H](O)[C@H]1O,tyrosinase (Agaricus bisporus),enzyme activity,,"30 min, pH 6.8, 37 °C, added: L-DOPA",324 µM
CCc1nccn1CC(=O)c1ccc(O)c(O)c1,"Alkaline phosphatase, placental type (Homo sapiens, UniProt P05187)","enzyme activity, inhibitor, luminescence, CDP-star substrate",,different enzyme concentrations,0.8 µM
[Cl-].[Cl-].[Zn+2],"SARM1 (Homo sapiens, UniProt Q6SZW1)",NAD hydrolase activity,cell lysate,added: ENAD substrate,10 ± 3 µM
N#Cc1cc(F)cc(OCC(O)Cn2c(=N)n(Cc3ccccc3)c3ccccc32)c1 (stereo not drawn),KCNJ13 M125R,"ion flux, inhibitor",,,8.27 µM
NC(N)=S,Urease,"enzyme activity, inhibitor",,pH 8.2,30 µM
O=C(Nc1cccc(OC(F)(F)F)c1)N[C@H]1CC[C@H](Oc2ccc(C(=O)O)cc2)CC1,"Ephx2 (Rattus norvegicus, UniProt P80299)","enzyme activity, inhibitor, fluorescence",,,0.016 µM
Oc1cc(O)c2c(c1)O[C@H](c1ccc(O)c(O)c1)[C@H](O)[C@H]2c1c(O)cc(O)c2c1O[C@H](c1ccc(O)c(O)c1)[C@H](O)C2,alpha-glucosidase (Bacillus stearothermophilus),inhibitor,,"20 min, pH 6.8, 60 °C, added: pNPG substrate",8.5 ± 1.5 µM
CC(O)c1cc(C(=O)N[C@@H](C)Cn2ccc(-c3ccc(C#N)c(Cl)c3)n2)[nH]n1 (stereo partly drawn),"SLCO1B1 (Homo sapiens, UniProt Q9Y6L6)","transporter uptake, inhibitor",,with preincubation,3.8 µM
COc1ccc([C@H](CC(=O)O)N2CCN(CCCc3ccc4c(n3)NCCC4)C2=O)cn1,"Integrin alpha-V/beta-1 (Homo sapiens, UniProt P05556+P06756)","fibronectin binding, inhibitor, ELISA",,,0.0016 ± 0.0007 µM
FC(F)(F)c1ccc(NC(=S)N2CCc3ccccc3C2)cc1,Urease,"enzyme activity, inhibitor, absorbance",,,18.5 µM
N=c1n(Cc2ccccc2)c2ccccc2n1CC(O)CN1CCOCC1 (stereo not drawn),KCNJ13 M125R,"ion flux, inhibitor",,,> 100 µM
[Cl-].[Cl-].[Zn+2],"HVCN1 (Homo sapiens, UniProt Q96D96, E119A/H193A)","proton current, inhibitor, whole-cell voltage clamp",human cells,"pH 6.5, test pulse 100 mV",282 µM
NC(=O)[C@@H]1CC[C@@H]2CN1C(=O)N2OS(=O)(=O)O,"dacC (Pseudomonas aeruginosa, UniProt G3XD74)","binding, Bocillin FL competition",Pseudomonas aeruginosa 1771 membranes,"PBP 5, added: Bocillin FL 100 µM",> 49 µM
O=c1cc(-c2ccccc2O)oc2ccccc12,Cyp2b1,"enzyme activity, inhibitor",supersomes,added: pentoxyresorufin 5 µM,> 50 µM
CCCCCC/C=C\CC(=O)N[C@H](C(=O)N[C@@H](CO)[C@@H](O)CC(=O)N[C@H](C(=O)N[C@@H](CO)[C@@H](O)CC(=O)N[C@H](C(=O)N[C@@H]1C=CC(=O)N[C@@H](C(C)C)C(=O)N(C)[C@@H](Cc2ccc(O)cc2)C(=O)OC1)C(C)C)C(C)C)C(C)C,CAPN1,"enzyme activity, inhibitor, fluorescence",,,0.0209 µM
FC(F)(F)c1ccc(-c2cc(Nc3ccc4ncsc4c3)ncn2)c(NCC2CCCCC2)c1,Trpv1,"capsaicin-induced 45Ca2+ uptake, antagonist",CHO expressing rat TRPV1,"pH 7.4, added: capsaicin 500 nM",0.0293 ± 0.0124 µM
CC(=O)Nc1ncc(O)cn1,"PTGS1 (Ovis aries, UniProt P05979)","enzyme activity, inhibitor",,pH 8,761 µM
O=c1cc(-c2cccc3ccccc23)[nH][nH]1,"ALPL (Homo sapiens, UniProt P05186)","enzyme activity, inhibitor, absorbance",,,73.6 µM

# A few entries again:
SMILES,target,test,system,conditions,IC50
CCCCN(Cc1ccc(C(=O)NO)cc1)C(=O)Nc1ccccc1,HDAC (Lucilia cuprina egg nuclear extract),"enzyme activity, inhibitor, fluorometric",,,5.1 µM
NC(N)=S,Urease,"enzyme activity, inhibitor",,pH 8.2,30 µM
O=C(OC(C(F)(F)F)C(F)(F)F)N1CCN(C(c2ccc(Cl)cc2)c2ccc(Cl)cc2)CC1,"Monoacylglycerol lipase-like protein (Plasmodium falciparum, UniProt Q8IJ22)","enzyme activity, inhibitor",,added: 4-methylumbelliferyl octanoate 10 µM,0.0026 µM
CC(=O)Nc1ncc(O)cn1,"PTGS1 (Ovis aries, UniProt P05979)","enzyme activity, inhibitor",,pH 8,761 µM
N=c1n(Cc2ccccc2)c2ccccc2n1CC(O)CN1CCOCC1 (stereo not drawn),KCNJ13 M125R,"ion flux, inhibitor",,,> 100 µM
N#Cc1ccc(C(Cc2ccc(OS(N)(=O)=O)cc2)n2cncn2)cc1 (racemic),"Steryl-sulfatase (STS, Homo sapiens, UniProt P08842)","enzyme activity, inhibitor",,,3.52 ± 0.625 µM
